Published values of several laboratories.
Compare with care: the assays were run in different laboratories. Values joined by “and” are separate records of one study, mostly repeats; a detail may differ. ± gives the spread as reported.

`CC(=O)c1nn(-c2ccc(Cl)cc2)/c(=N/N=C(\C)c2ccc(NC(=O)c3ccccc3)cc2)s1` has a toxicity of 96.2% and 96.9% (HepG2; 5 µM).
With `O=C(O)COC(=O)Cc1ccccc1Nc1c(Cl)cccc1Cl` the activity score was 4 (human iPSC-derived cardiomyocytes; MyBP-C/MYH ratio, plate-normalised SD score; concentration not given, primary screen; direction not given).
Under “log2 fold change”, `Cc1cc(Nc2ncc(Cl)c(Nc3ccccc3S(=O)(=O)C(C)C)n2)c(OC(C)C)cc1C1CCNCC1` is recorded as -3.14 (CLB-BAR; phosphoproteomics LC-MS/MS, refers to: TJAP1 phosphorylation; 200 nM, 60 min; baseline: untreated).
`CNCCCOc1cc(F)c(-c2c(Cl)nc3ncnn3c2N[C@@H](C)C(F)(F)F)c(F)c1`: “proteins increased over twofold” 16 (QBI293; quantitative proteomics; 10 µM, 4 h, unit not given; baseline: vehicle).
For `COc1cccc(OC)c1-c1cc(C(=O)NC2(C(=O)O)C3CC4CC(C3)CC2C4)nn1-c1ccc(C(=O)N(C)CCCN(C)CCCN(C)C(=O)CN2CCN(CC(=O)[O-])CCN(CC(=O)[O-])CCN(CC(=O)[O-])CC2)cc1C(C)C.[177Lu+3]` (centres unmarked), the efflux was 79 ± 4% (HT-29; 24 h; baseline: internalized).
With `Cc1c(C(=O)O)ccc2c3n(nc12)[C@@H]1[C@H](C3)N(CC2CC2)[C@@]2(C(=O)Nc3cc(Cl)ccc32)[C@H]1c1cccc(Cl)c1F` the GI50 was 43 nM (RKO (MDM2 non-amplified); cell growth, alamarBlue; 120 h).
`COc1cc2ncnc(Nc3ccc(Oc4ccccc4)c(C)c3C)c2cc1OC.Cl` — result for “average fractional effect”: 13% (LoVo (KRAS G13D); cell viability, resazurin; 0.3 µM, 72 h, added: trametinib 0 nM; baseline: DMSO).
`CCOc1ccc(-c2nc3cc(-c4nc5cc(N6CCN(C)CC6)ccc5[nH]4)ccc3[nH]2)cc1OCC` has a growth percent of 10% (M14; SRB; 10 µM, 48 h).
For `NC(=O)NC1NC(=O)NC1=O` (centres unmarked), the activity score was -4.7 (human iPSC-derived cardiomyocytes; MyBP-C/MYH ratio, plate-normalised SD score; concentration not given, primary screen; direction not given).
`CNc1ncnc2c1c(-c1ccc3cc(OC4CC4)ccc3c1)nn2CC(C)(C)O`: “extracellular acidification rate” “inhibited” (LNCaP and LNCaP-95; glycolysis, Seahorse; 20 µM, 1 h).
With `C=Cc1c2[n-]c(c1C)/C=c1\[n-]/c(c(C)c1C=C)=C\c1[n-]c(c(CCC(=O)O)c1C)/C=c1\[n-]c(c(C)c1CCC(=O)O)=C2.[Sn+4]` the fold change was 3.48 (SH-SY5Y; RNA-seq, refers to: SYT12 mRNA; 5 µM, 5 h; baseline: untreated cells).
`CCn1cc(-c2cc(Cn3ccoc3=N)cc3c2CCN([C@@H](C)c2cc(OC)ccn2)C3=O)c(C(F)(F)F)n1` gave an EC50 of 4780 nM (KYM1; cell growth; 120 h).
`CC(=O)Nc1ccc(OC(=O)c2ccccc2O)cc1` has an activity score of 3 (human iPSC-derived cardiomyocytes; MyBP-C/MYH ratio, plate-normalised SD score; concentration not given, primary screen; direction not given).
`C[C@H]1[C@@H](O)O[C@@H]2O[C@@]3(C)CC[C@H]4[C@H](C)CC[C@@H]1[C@@]24OO3`: “early apoptotic cells” 2.1% (THP-1; annexin V/PI flow cytometry, refers to: annexin V+/PI-; 0.4 µM, 24 h).
For `CCc1cnc(N2CCC(c3nc(COc4ccc(-n5cnnn5)cc4)cs3)CC2)nc1`, “normalized enrichment score” read 0.872 (HEK-293T; RNA-seq GSEA, refers to: HALLMARK_TGF_BETA_SIGNALING; concentration not given; direction not given).
`CC[C@H](C)N(CC(=O)N(CC(=O)N(CC(=O)N(CC(=O)N(CC(=O)N(CC(=O)N(CC(N)=O)[C@@H](C)c1ccccc1)[C@@H](C)c1ccccc1)[C@@H](C)CC)[C@@H](C)c1ccccc1)[C@@H](C)c1ccccc1)[C@@H](C)CC)C(=O)CNCCCCN`: IL-6 release “decreased” (THP-1 macrophages; ELISA; 10 µM, 72 h, added: LPS 2 ng/mL).
The cell lysis of `CC(C)(O)c1coc(S(=O)(=O)NC(=O)Nc2c3c(cc4c2CCC4)CCC3)c1` is reported as 27.9% and 27.3% (THP-1 cells, LPS-primed; pyroptosis, LDH release; 25 µM, LPS 1 µg/mL, 4 h, added: nigericin 5 µM, 2 h).
For `Cn1cc(-c2ccc(-c3cncc(Cl)c3N3CCC4(CCNC4=O)CC3)cc2)cn1`, “log2 fold change” read 3.21 (COLO 205; gene expression, microarray, refers to: LAMB3 mRNA; concentration not given, 6 h; baseline: untreated cells).
`Br.N=c1n(CC(=O)c2ccc([N+](=O)[O-])cc2)c2ccccc2n1Cc1ccccc1Cl` has an efficacy of 42% (C127 LDR GFP reporter cells; silenced GFP reporter induction, activator, high-content imaging; retest, two-run mean).
The inhibition of `Cc1cc(N2CCc3c(c(C)nn3CC34CCC(NC(=O)[C@@H]5COCCN5)(CC3)CC4)C2)c2cnn(C)c2n1` is reported as 96 ± 1% (human PBMC; qRT-PCR, refers to: IFI27 mRNA; 100 nM, added: ssRNA).
`Cc1c(NC(C)C)c(=O)n(-c2ccccc2)n1C` gave an activity score of -4.3 (human iPSC-derived cardiomyocytes; MyBP-C/MYH ratio, plate-normalised SD score; concentration not given, primary screen; direction not given).
`CC(C)NCC(O)c1ccc(O)c(O)c1` (centres unmarked) gave a sarcomere length of 1.8 µm (mouse ventricular cardiomyocytes; dose not given, 0.267 s).
With `CC/C=C\C/C=C\C/C=C\C/C=C\C/C=C\C/C=C\CCC(=O)O` the activity score was 3.5 (human iPSC-derived cardiomyocytes; MyBP-C/MYH ratio, plate-normalised SD score; concentration not given, primary screen; direction not given).
The uptake of `CN(Cc1cnc2nc(N)nc(N)c2n1)c1ccc(C(=O)N[C@@H](CCC(=O)O)C(=O)O)cc1` is reported as 18.3% (cells transfected with L242C mutant; 0.5 µM, 2 min, pH 5.5, 37 °C).
`COc1cccc(N2CCN(S(=O)(=O)c3ccc(-n4cnnn4)cc3)CC2)c1` gave an efficacy of 208% (C127 LDR GFP reporter cells; silenced GFP reporter induction, activator, high-content imaging; retest, two-run mean).
`CSc1cc(Oc2ccnc3[nH]c(=O)cnc23)ccc1NC(=O)Nc1cc(C(C)(C)C)nn1-c1ccccc1`: “phospho/total GSK-3β ratio” 0.61 (patient-derived cell clone A (sample B); reverse phase protein array, refers to: GSK-3β pSer9; human; 1 µM, 4 h; baseline: DMSO).
The maximum efficacy of `COc1ccc(C(=O)/C=C/Sc2nc3ccccc3o2)cc1` is reported as 73% (C127 LDR GFP reporter cells; silenced GFP reporter induction, activator, high-content imaging; independent samples, two-run mean).
The toxicity of `CC(=O)c1nn(-c2ccc(Cl)cc2)/c(=N/N=C(\C)c2ccc(NC(=O)c3ccc(C)cc3)cc2)s1` is reported as 13.3% (MCF7; 0.078 µM).
`C=CC1=C(C)c2cc3[n-]c(cc4nc(cc5[n-]c(cc1n2)c(C)c5C=C)C(C)=C4CCC(=O)O)c(CCC(=O)O)c3C.[Zn+2]` gave a fold change of 2.14 (SH-SY5Y; RNA-seq, refers to: ITGA2 mRNA; 5 µM, 5 h; baseline: untreated cells).
The activity score of `Cn1c(=O)c2[nH]cnc2n(C)c1=O` is reported as 5 (human iPSC-derived cardiomyocytes; MyBP-C/MYH ratio, plate-normalised SD score; concentration not given, primary screen; direction not given).
`COc1cc(N2CCC(N3CCN(C)CC3)CC2)ccc1Nc1ncc(Cl)c(Nc2ccccc2P(C)(C)=O)n1` has a GI50 of 890 nM (NCI-H1975 (EGFR L858R/T790M); cell growth, CellTiter-Glo; 72 h).
`CCn1cc(C(=O)O)c(=O)c2cnc(N3CCNCC3)nc21` gave an activity score of 3.1 (human iPSC-derived cardiomyocytes; MyBP-C/MYH ratio, plate-normalised SD score; concentration not given, primary screen; direction not given).
`CCOC(=O)c1cc2c(=O)n3ccccc3nc2n(Cc2ccco2)c1=NC(=O)c1ccc(Br)cc1` has an efficacy of 65% (C127 LDR GFP reporter cells; silenced GFP reporter induction, activator, high-content imaging; retest, two-run mean).
For `Cc1ccc(CNC(=O)Cn2cc(CSc3nc4ccccc4[nH]3)nn2)cc1`, the viability was 19% (Caco-2; MTT; 62.5 ppm).
`CCOC(=O)c1c(NC(=O)CC2Nc3cc(C)c(C)cc3NC2=O)sc(C)c1C` (centres unmarked) gave an efficacy of 104% (C127 LDR GFP reporter cells; silenced GFP reporter induction, activator, high-content imaging; retest, two-run mean).
With `O=C(CCCSc1nc2ccccc2c(=O)[nH]1)Nc1ccccc1` the inhibition was 64 ± 4% (cells, COS-1, expressing proMMP-9; cell migration, 2D collagen dot migration; 50 µM, 18 h).
For `Clc1nc(NCc2ccco2)c2[nH]cnc2n1`, the ΔPSI was -0.214 (FD iPSC-derived cardiomyocytes; alternative splicing, RNA-seq, refers to: BRD8 exon chr5:138159554-138159599; unit not given; baseline: DMSO minus compound).
`CCc1ccc(NC(=O)C2CCC(CNS(=O)(=O)c3ccc4c(c3)CC(C)N4C(C)=O)CC2)cc1` (centres unmarked) has an efficacy of 29% (C127 LDR GFP reporter cells; silenced GFP reporter induction, activator, high-content imaging; retest, two-run mean).
`Cn1cc(Nc2nccc(-c3ccc4c(c3)CN(C3COC3)CC[C@H]4NC(=O)c3cn(C(C)(C)C)nn3)n2)cn1`: “pathway activation z-score” 3 (mouse splenic B cells; refers to: apelin Cardiomyocyte signalling pathway; 30 mg/kg, IgD-activated in vivo; baseline: vehicle, direction not given).
The selectivity ratio of `O=C(Nc1cc(OCCN2CCCC2)c2ccccc2n1)c1cc(OCc2ccc(F)cc2)cc(C(=O)Nc2cc(OCCN3CCCC3)c3ccccc3n2)n1` is reported as 2 (U2OS; cell viability, CellTiter-Glo; 72 h; baseline: IC50 U2OS over WI-38).
For `O=C(Nc1nnc2[nH]c(=S)[nH]c(-c3ccc(Cl)cc3)c1-2)c1ccccc1`, the cell growth was 101% (M14; SRB; 10 µM, NCI60 single-dose screen; baseline: untreated).
`CCn1cc(-c2cc(Cn3ccnc3)cc3c2CCN([C@H](c2cc(OC)ccn2)C2CC2)C3=O)c(C(F)(F)F)n1` gave an EC50 of 1870 nM (MDA-MB-436; cell growth, inhibitor; 120 h).
`CC(C)(c1ccc(O)cc1)c1ccc(O)cc1` — result for “G2 phase cells”: 19.1 ± 4.2% (HepG2 spheroids; Hoechst flow cytometry; 10 µM, 24 h).
The EC50 of `C[C@H]1CNCCN1c1nccc(-c2noc3c2CCC[C@@]32CCCc3sc(N)c(C#N)c32)n1` is reported as 2360 nM (Ba/F3 (HRAS dependent); cell growth; 72 h, without IL-3).
For `COc1cnc2cccc(N3CCc4c(cc(Cn5ccnc5C)cc4-c4cn(C)nc4C(F)(F)F)C3=O)c2c1`, the EC50 was 154 nM (MDA-MB-436; cell growth, inhibitor; 120 h).
The viability of `Nc1cccc2c1CN(C1CCC(=O)NC1=O)C2=O` (centres unmarked) is reported as 70% (bone marrow CD138+ myeloma cells; XTT; 0.8 µM, mean of three patients).
For `CC/C(=N\NC(=O)C(C)Nc1ccccc1)c1ccc(O)c(C)c1O` (centres unmarked), the protein level was 0.73 ± 0.42 (SK-OV-3; Western blot, refers to: LATS; 10 µM, 1 h, 3D gellan gum culture, unit not given; baseline: β-actin).
The activity score of `C/C=C1\[C@H]2C=C(C)C[C@]1(N)c1ccc(=O)[nH]c1C2` is reported as 3.7 (human iPSC-derived cardiomyocytes; MyBP-C/MYH ratio, plate-normalised SD score; concentration not given, primary screen; direction not given).
`Cn1cc(-n2cnc3c(NCc4nc5cc(Cl)c(Cl)cc5[nH]4)nc(N4CCOCC4)nc32)cn1` has a luminescence signal of 448000 a.u. and 425000 a.u. and 481000 a.u. (MDA-MB-231; cell viability, CellCounting-Lite; 0.9145 nM, 37 °C; higher = more viable cells).
`O=C(/C=C/C=C/C=C/C1CCCCC1)NC1=C[C@@](O)(/C=C/C=C/C=C/C(=O)NC2=C(O)CCC2=O)[C@@H]2O[C@@H]2C1=O` gave a GI50 of 25200 nM (mfe319; cell growth, inhibitor, CellTiter-Glo luminescence; 78 h; baseline: day 0 cell count).

Excerpt of the above:
`CC(=O)Nc1ccc(OC(=O)c2ccccc2O)cc1` has an activity score of 3 (human iPSC-derived cardiomyocytes; MyBP-C/MYH ratio, plate-normalised SD score; concentration not given, primary screen; direction not given).
`C[C@H]1[C@@H](O)O[C@@H]2O[C@@]3(C)CC[C@H]4[C@H](C)CC[C@@H]1[C@@]24OO3`: “early apoptotic cells” 2.1% (THP-1; annexin V/PI flow cytometry, refers to: annexin V+/PI-; 0.4 µM, 24 h).
For `CCc1cnc(N2CCC(c3nc(COc4ccc(-n5cnnn5)cc4)cs3)CC2)nc1`, “normalized enrichment score” read 0.872 (HEK-293T; RNA-seq GSEA, refers to: HALLMARK_TGF_BETA_SIGNALING; concentration not given; direction not given).
`CC[C@H](C)N(CC(=O)N(CC(=O)N(CC(=O)N(CC(=O)N(CC(=O)N(CC(=O)N(CC(N)=O)[C@@H](C)c1ccccc1)[C@@H](C)c1ccccc1)[C@@H](C)CC)[C@@H](C)c1ccccc1)[C@@H](C)c1ccccc1)[C@@H](C)CC)C(=O)CNCCCCN`: IL-6 release “decreased” (THP-1 macrophages; ELISA; 10 µM, 72 h, added: LPS 2 ng/mL).
